Assay results from different studies.
Every numbered part comes from another study and shows a few of its results, in no order.
Chain of UniProt O24409 (whole entry, looked up): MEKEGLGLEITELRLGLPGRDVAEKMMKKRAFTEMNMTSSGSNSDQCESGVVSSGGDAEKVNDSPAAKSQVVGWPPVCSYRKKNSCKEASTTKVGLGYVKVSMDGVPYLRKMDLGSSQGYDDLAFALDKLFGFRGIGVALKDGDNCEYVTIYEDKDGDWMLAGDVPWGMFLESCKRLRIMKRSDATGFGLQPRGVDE
Chain of UniProt Q9C966 (whole entry, looked up): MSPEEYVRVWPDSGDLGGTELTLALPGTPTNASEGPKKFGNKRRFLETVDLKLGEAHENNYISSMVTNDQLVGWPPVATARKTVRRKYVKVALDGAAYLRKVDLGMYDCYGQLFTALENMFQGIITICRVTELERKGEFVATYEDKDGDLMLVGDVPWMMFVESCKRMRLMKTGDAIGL
Chain of UniProt Q9ZSY8 (whole entry, looked up): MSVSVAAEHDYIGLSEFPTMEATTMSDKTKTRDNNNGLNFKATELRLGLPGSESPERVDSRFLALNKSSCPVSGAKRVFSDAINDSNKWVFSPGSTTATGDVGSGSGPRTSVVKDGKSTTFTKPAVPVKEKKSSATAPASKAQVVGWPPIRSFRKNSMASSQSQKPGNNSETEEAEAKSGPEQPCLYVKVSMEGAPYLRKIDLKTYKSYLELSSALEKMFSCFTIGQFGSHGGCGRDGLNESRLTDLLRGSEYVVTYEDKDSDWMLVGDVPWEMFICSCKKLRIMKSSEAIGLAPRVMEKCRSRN
Chain of UniProt Q9FX25 (whole entry, looked up): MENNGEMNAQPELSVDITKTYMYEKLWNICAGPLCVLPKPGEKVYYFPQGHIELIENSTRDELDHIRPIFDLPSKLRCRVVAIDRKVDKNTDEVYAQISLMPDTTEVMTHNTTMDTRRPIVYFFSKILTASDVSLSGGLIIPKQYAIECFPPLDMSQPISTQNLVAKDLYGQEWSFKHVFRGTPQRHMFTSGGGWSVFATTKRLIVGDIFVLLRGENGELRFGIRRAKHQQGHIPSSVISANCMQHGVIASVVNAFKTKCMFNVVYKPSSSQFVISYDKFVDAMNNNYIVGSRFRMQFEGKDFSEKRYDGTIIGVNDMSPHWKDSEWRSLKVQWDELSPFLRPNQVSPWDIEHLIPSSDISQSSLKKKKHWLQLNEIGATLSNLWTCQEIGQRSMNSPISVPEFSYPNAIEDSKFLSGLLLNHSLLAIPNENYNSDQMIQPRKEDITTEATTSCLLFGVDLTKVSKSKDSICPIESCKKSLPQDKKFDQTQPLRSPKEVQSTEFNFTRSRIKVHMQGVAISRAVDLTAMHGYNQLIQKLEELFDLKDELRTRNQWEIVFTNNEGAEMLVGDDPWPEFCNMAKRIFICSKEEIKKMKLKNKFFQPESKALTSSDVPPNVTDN
Chain of UniProt Q9XFM0 (whole entry, looked up): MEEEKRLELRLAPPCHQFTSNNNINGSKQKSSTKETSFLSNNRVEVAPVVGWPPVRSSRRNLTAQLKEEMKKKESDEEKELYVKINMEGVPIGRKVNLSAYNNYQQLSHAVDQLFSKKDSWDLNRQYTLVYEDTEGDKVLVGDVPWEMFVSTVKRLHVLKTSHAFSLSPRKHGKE
Chain of UniProt O24408 (whole entry, looked up): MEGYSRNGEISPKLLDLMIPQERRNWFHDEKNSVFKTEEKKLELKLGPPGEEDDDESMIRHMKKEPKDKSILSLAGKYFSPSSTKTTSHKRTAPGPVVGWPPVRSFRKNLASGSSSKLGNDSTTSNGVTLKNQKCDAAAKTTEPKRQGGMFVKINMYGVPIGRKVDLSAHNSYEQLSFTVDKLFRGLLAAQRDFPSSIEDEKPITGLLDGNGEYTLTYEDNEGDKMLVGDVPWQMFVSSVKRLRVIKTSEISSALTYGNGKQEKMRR
Chain of UniProt Q9ZTX8 (whole entry, looked up): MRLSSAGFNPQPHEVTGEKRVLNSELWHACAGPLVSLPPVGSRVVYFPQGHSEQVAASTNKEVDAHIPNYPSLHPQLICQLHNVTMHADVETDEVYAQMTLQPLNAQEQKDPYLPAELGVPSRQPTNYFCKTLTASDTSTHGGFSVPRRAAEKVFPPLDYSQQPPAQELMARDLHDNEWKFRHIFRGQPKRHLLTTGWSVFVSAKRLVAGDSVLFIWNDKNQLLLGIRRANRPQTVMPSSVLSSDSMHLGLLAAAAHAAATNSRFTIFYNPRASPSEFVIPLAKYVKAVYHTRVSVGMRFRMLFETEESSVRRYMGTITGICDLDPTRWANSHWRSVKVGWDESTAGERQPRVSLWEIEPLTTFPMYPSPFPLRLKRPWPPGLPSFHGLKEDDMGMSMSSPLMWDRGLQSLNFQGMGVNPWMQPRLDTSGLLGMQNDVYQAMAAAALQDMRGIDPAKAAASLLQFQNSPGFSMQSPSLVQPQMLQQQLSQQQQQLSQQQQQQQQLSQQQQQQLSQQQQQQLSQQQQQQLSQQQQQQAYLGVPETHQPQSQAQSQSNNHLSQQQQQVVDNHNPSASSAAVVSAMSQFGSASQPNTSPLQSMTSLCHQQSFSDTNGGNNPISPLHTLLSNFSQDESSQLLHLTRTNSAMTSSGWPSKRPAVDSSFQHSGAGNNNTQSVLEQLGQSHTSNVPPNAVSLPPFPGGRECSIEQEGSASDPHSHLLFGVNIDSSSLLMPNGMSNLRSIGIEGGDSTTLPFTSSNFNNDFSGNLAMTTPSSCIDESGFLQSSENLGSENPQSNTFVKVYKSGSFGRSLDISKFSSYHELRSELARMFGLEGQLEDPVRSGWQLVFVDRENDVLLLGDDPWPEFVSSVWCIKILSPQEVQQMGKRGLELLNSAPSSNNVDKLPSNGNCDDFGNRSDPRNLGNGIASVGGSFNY

Sample 1 — method: aptamer microarray, sandwich; form: DNA with 2'F-ANA; sample: in vitro; concentration: 200 nM; added: Cy3 exosite-II aptamer, 400 nM; direction: higher = stronger binding; oligonucleotide: GGTTGGTGTGGTTGG
Target: Prothrombin, mature alpha-thrombin (F2, Homo sapiens, UniProt P00734)
Setting: whole 15-mer aptamer, many near background
Modification | mean fluorescence intensity
2'F-ANA at 1 2 3 6 7 9 11 13 | 122 a.u.
2'F-ANA at 1 2 3 4 7 12 15 | 472 a.u.
2'F-ANA at 2 3 4 5 7 9 14 | 48.1 a.u.
2'F-ANA at 2 4 5 6 9 11 12 14 15 | 52.5 a.u.
2'F-ANA at 2 3 8 9 11 13 15 | 646 a.u.
2'F-ANA at 2 3 4 6 9 10 13 15 | 172 a.u.
2'F-ANA at 1 2 3 6 8 13 | 183 a.u.
2'F-ANA at 2 6 8 9 14 15 | 115 a.u.
2'F-ANA at 1 2 4 5 6 7 8 9 12 15 | 108 a.u.
2'F-ANA at 1 3 4 6 7 9 10 12 | 77 a.u.
2'F-ANA at 2 4 5 6 8 9 12 13 14 | 50.8 a.u.
2'F-ANA at 1 6 7 9 11 12 13 15 | 199 a.u.
2'F-ANA at 1 2 3 6 8 13 15 | 233 a.u.
2'F-ANA at 2 3 4 7 8 11 13 14 | 347 a.u.
2'F-ANA at 1 2 5 6 7 8 9 11 15 | 81.5 a.u.
2'F-ANA at 1 2 3 4 9 10 11 | 58.3 a.u.
2'F-ANA at 1 2 3 4 5 6 11 12 13 15 | 67.8 a.u.
2'F-ANA at 2 3 5 6 7 8 9 11 12 14 15 | 124 a.u.
2'F-ANA at 5 7 10 11 12 14 | 43 a.u.
2'F-ANA at 3 5 7 8 11 12 13 | 203 a.u.
2'F-ANA at 1 3 5 8 13 | 57.9 a.u.
2'F-ANA at 3 5 6 7 10 12 13 | 56.5 a.u.
2'F-ANA at 1 2 6 7 11 | 129 a.u.
2'F-ANA at 1 4 8 9 10 12 13 14 15 | 49.4 a.u.
2'F-ANA at 1 2 5 7 11 12 13 | 76.6 a.u.

Sample 2 — method: RNA Bind-n-Seq; form: RNA; sample: in vitro; concentration: 365 nM; baseline: no-protein control; direction: higher = stronger binding
Target: RNA binding protein fox-1 homolog 2, RRM domain, GST-SBP tag (RBFOX2, Homo sapiens, UniProt O43251-10, residues 100-194)
Setting: natural RNA segment, single round, ends assumed
Shared flanks, not repeated: GGGAGUUCUACAGUCCGACGAUC … UGGAAUUCUCGGGUGCCAA
Construct (chain): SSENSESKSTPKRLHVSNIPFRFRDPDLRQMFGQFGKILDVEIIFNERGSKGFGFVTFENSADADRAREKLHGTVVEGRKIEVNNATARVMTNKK
Oligonucleotide | RBNS enrichment (R)
UGAAGCUUGGAGAAAACUCUGCAUUCCCAUGAGGGCAAAGGCAGCUGCCCUCCCUGACCCUAUAGCCCCAGGCCUCAUGGGGGGUAUGUGGGGAAGGGAUGGGGUAUCCC | 0.818
UCUCCACAGGUGCGGCCUGGCCCGGCCUCCUAAAGGCCACACCCUCCCCACGCACUUCCCAGGCCAGAAUCCAAACAUCGGGAACCCUGUUUUCUUCUGGGUGUGUCUCA | 0.538
UCCAUAAAAUCCUAAGCCCUUUUAUUAAUGUAUAACCAGGAGAACAUCUGUGCCAACGGUUGGACUUUUUAUGGCUGAGAUUCGGGAGGAAGUGUGACACCAAGCAGGAG | 0.314
AGGGGACGGCUUUGGGGGUCCCACGAGACAUGGACUAGGAGUUUAAGCAGGACAGUGUGCGUGCACGAGCUCCGAGCCCAGCACAGACAUGCCUGGAACCCCCGCCGCCU | 0.394
AGACAGGAAGGGAAAAGCAAAUUUCUAAUUCACCAGCAAUAAAAAUUGGAGGAGGCUUGGCCCUCAGCCCUUAUAUCUCUCUCUUUUUCACUCUCUUCCUCCCACCCCCA | 0.578
GGCUGACCUUCCUGAUCAUACACACACACAGCCCAGCAAAAGCCUCUCCUGAACCAAACAAACCUGUUGGUUGGGAGACUGCCCAGACAUGAUUGAUGACGGGUUCCCGC | 0.955
GUGUGGGGGAGGCAAGGGAAGAGGACGAAAAUGAUGAGAAUGACACUGAGGUCAUUGUUUAGAGCAGAUCUCAAGCAGCCGUUUGGCCACGCCAUAUCCUUUGUGGAGCA | 1.45
GAUGCAGAACGCCAGAUUUUUGAAUCUCAAGUAACUUUCUGUGGUGCUGGACAAAUUGACUUAAUUCUGUGCAGGCAAACACUUUGAAUCAUAAGGAUUUUUAUUGCCGC | 0.522
CAUGUGGAUCAGGCCCAGGAAGGGCACAGGGGCUGAGCACUACAGAAGUCACAUGGGUUCUCAGGGUAUGCCAGGGGCAGAAACAGUACCGGCUCUCUGUCACUCACCUU | 0.441
ACUGAGCACACCUUCUGCCAGCACCUACUGAGGGAGACGAAAAGCCCCUGGAAAUUCGUGUGGCCUGUGAAGUGGUGUAUUGUAGUUUGAAUUUGAGACCUAUUGUAAGC | 0.546
GACCAGUUCUCCACCUGCUCUGACUGCUCAGGAGGCCUGGGUUCCCAUCUACCCUGUCACACUUCACCAGAAGGGAGAAGGUUGUUGCCAGUCACCAGGGAGCUCACUUU | 0.246
AAUGAUAUUUUAGAGUCUGAGUGACCCCUUUGACUAUCAGUUCUGAAGAGCAAUUCUCACUGGUAACUUGACAUCUCUCAAUUUCAGGAUCUUUGCCUCUCAUUAAAAGU | 0.306

Sample 3 — Sequence: B1 (IAA14); method: two-hybrid; baseline: out of 4 tests; direction: higher = firmer interaction
B1: IAA14 (Arabidopsis thaliana, UniProt Q38832); chain MNLKETELCLGLPGGTETVESPAKSGVGNKRGFSETVDLKLNLQSNKQGHVDLNTNGAPKEKTFLKDPSKPPAKAQVVGWPPVRNYRKNVMANQKSGEAEEAMSSGGGTVAFVKVSMDGAPYLRKVDLKMYTSYKDLSDALAKMFSSFTMGSYGAQGMIDFMNESKVMDLLNSSEYVPSYEDKDGDWMLVGDVPWPMFVESCKRLRIMKGSEAIGLAPRAMEKFKNRS
partner | positive tests
IAA18 (Arabidopsis thaliana, UniProt O24408) | 1
IAA19 (Arabidopsis thaliana, UniProt O24409) | 2
IAA28 (Arabidopsis thaliana, UniProt Q9XFM0) | 3
ARF6 790-935 (Arabidopsis thaliana, UniProt Q9ZTX8) | 1
ARF13 (Arabidopsis thaliana, UniProt Q9FX25) | 0
IAA15 (Arabidopsis thaliana, UniProt Q9C966) | 1
IAA27 (Arabidopsis thaliana, UniProt Q9ZSY8) | 2

Sample 4 — method: EMSA with sequencing; form: double-stranded DNA, one strand shown; sample: in vitro; concentration: 10 and 20 nM; baseline: negative control set to 0; direction: higher = stronger binding
Target: Hepatocyte nuclear factor 3-alpha (Foxa1, Mus musculus, UniProt P35582, residues 1-468, full length assumed)
Chain of UniProt P35582 (whole entry, looked up): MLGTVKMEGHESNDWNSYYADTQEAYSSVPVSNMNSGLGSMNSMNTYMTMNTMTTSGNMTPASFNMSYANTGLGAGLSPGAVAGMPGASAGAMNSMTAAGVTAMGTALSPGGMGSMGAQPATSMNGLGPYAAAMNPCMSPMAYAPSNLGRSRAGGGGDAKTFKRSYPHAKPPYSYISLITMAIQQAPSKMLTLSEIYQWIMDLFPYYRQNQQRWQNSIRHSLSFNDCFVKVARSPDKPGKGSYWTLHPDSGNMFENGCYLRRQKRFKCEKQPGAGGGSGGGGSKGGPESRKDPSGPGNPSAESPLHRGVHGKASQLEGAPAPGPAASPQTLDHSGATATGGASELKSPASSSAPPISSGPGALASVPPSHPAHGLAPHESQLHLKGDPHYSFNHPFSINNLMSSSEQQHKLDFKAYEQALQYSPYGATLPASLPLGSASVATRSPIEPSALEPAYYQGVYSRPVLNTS
Setting: whole designed probe, mean of two concentrations, ends assumed
Shared flanks, not repeated: GTGAGCGGTGCCCATTGATGGGGAAC … TTTCACTGGGATCGTGGGGAC
Oligonucleotide | normalised bound fraction [ratio]
GATATTTGCAATCAATCTACTAGTTAACTATAAATGGAACAATGTACTTTCTTCCTTTCTCCAAACTGGAGAAGAGACTTTTAGAAGAATCTGAGTAATCTGGAAAACTTAGTCTTATCTTACAAGTCAAGGAAGCAGTTATTAAGAACATATGGATAAGCATGAAATCAAATCTTATTCTCTGCAAAGGAGC | -0.0351
GGTGTGACATATTCTCACTGCTATATATCAAAGCGTTAATGGTGGAATTTTGTCTTTGTAAAGCATTTGGAGTTATTTTCGAGAAAAGCGCTGTGTAAACAAGGAATTTATTTTAAGAACAACTCCATGTTTGTTGAGATACTTGTTTAGTTATTATGGCTTGGTCTAGTATCTGAAAATAGAATCAAAGTAA | 0.462
ATCTTCCCCCTCTTCCTTGCCCCACCAGCTCACCTTCCCGGGTTATTTGCAGATAGGAAAATAAATAAAGCCGGCTTTTTTTTTCCCTCTTCTGGCGCAAACTGCTGTTTGCTCTGGATGAATCATGGTCCTTTGGCGACGCCAGGCTCCGGGAGAGCAAAGCACCGTGTCAGGGCCATGATCCGGGGTGGCC | 0.335
TTATGAGCCTTCCCATGTTATGGCTACATAGCTGTGATTATGTAATAAGTGGAGTTACGCTCCTGCGCTCCAAACTCGCTGAGTCACACAGGAAGATTACCTTGGCCTATGCCTGCCTGGCTGCAGTGCAGGCATATTCCTTACAAATAAACATTTCCTGAGAAACACCTACATGCTGGGCACTCTATTAGGC | 0.0864
TGAACAGATTAGCTGATCTCTAATGGCCCTAGGAGAAGATCTTGTATTGCTTCAAAATCTTTTCTGATTCTCATCACTCAACCTTCTTGGCTATGTAAACAAAGGAAGCTTTCCTTTTGTTTTCCAGACGTTTGGAAAACAAAATTTTCCAGAGCTGTGCATCTGCCAGGAAATGTTTCTTTTAACCTGATAT | 0.492
ATCTTCCCCCTCTTCCTTGCCCCACCAGCTCACCTTCCCGGGTATCTGCAAATAAGTATTTATTTTCAAGCCGGCATTCGTTAACCCTCTTCACGCGCATACTGCACATTGGTCTGGATCTAACATGGTCCTTTGGCGACGCCAGGCTCCGGGAGAGCAAAGCACCGTGTCAGGGCCATGATCCGGGGTGGCC | 0.141
AGATTGCTTTGTGATTGTTTTGCCAGATTTTGCTTTCACCCACAAAAACACTAAGCTCTGCCAACCAGTTCGGCCATTTTGTAAGTTAGCAAAATAAACACTAAAGTGAAATGGCGGCTTTTGGGCGGGGCTCCCACAGGCTGGCTCCTTTTAAGTGGAATGTTGCTGTGCTGCCCTCTTGTGGCCATTTGGG | 0.255
ACCAAGTTTCTGTAAAGATGGAAGAACAAGGTAACAGAAAGGAGAAATAACATGCCATGTTCCAAAGGGAAGTATTGTGGGCCCCTAAAGTACTATTTACTTTTCTACAGTGTGTCACTGCAAATATATATACACAAGTCAAGTTATGTGAGTCAACAACAGATTTAAGTTCCTAAGTTGGAGGGGAGAGCCC | 0.473
